Measured values from different studies.
Parts stem from different laboratories: compare values within a part only. Substitutions count along the parent as printed.

Block 1 — target: UBE2E3 UBC core domain (UniProt Q969T4); method: yeast two-hybrid; medium: yeast; notes: mostly zero background; reference: not given; direction: higher = stronger interaction
UniProt Q969T4, sequence (whole entry, looked up): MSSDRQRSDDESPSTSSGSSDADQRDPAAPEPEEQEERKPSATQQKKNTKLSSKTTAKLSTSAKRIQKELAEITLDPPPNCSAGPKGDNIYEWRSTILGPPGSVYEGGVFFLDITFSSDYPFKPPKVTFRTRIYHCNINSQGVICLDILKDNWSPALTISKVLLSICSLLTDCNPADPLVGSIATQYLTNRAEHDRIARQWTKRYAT
B1: RNF175 RING domain (UniProt Q8N4F7); chain LPTRSLSDNICAVCGQKIIVELDEEGLIENTYQLSCNHVFHEFCIRGWCIVGKKQTCPYCKEKVDLKRMIS
B2: RFPL2 RING domain (UniProt O75678); chain MAALFQEASSCPVCSDYLEKPMSLECGCAVCLKCINSLQKEPHGEDLLCCCSSMVSRKNKIRR
B3: TRIM38 RING domain (UniProt O00635); chain STKKMMEEATCSICLSLMTNPVSINCGHSYCHLCITDFFKNPSQKQLRQETFCCPQCRAPFHMDSLRP
B4: NSMCE1 RING domain (UniProt Q8WV22); chain RETYPDAVKICNICHSLLIQGQSCETCGIRMHLPCVAKYFQSNAEPRCPHCNDYWPHEIPKV
B5: RNF150 RING domain (UniProt Q9ULK6); chain DKETESDFDNCAVCIEGYKPNDVVRILPCRHLFHKSCVDPWLLDHRTCPMCKMNILKALGIP
B6: PHF7 RING domain (UniProt Q9BWX1); chain IQHGHVGEESCILCCEDLSQQSVENIQSPCCSQAIYHRKCIQKYAHTSAKHFFKCPQCNNRKEFPQEML
B7: TRIM35 RING domain (UniProt Q9UPQ4); chain PSRSFKEELLCAVCYDPFRDAVTLRCGHNFCRGCVSRCWEVQVSPTCPVCKDRASPADLRT
B8: ANKIB1 RING domain (UniProt Q9P2G1); chain LSPGDLDTSLCDICMCSISVFEDPVDMPCGHDFCRGCWESFLNLKIQEGEAHNIFCPAYDCFQLVPVDIIE
B9: UBE4A RING domain (UniProt Q14139); chain LQQQEEETYADACDEFLDPIMSTLMCDPVVLPSSRVTVDRSTIARHLLSDQTDPFNRSPLTMDQIRPNTELKEKIQRWLAERKQQKEQLE
Sequence | lacZ reporter activity
KIKDLNEHIVCCLCAGYFVDATTITECLHTFCKSCIVKYLQTSKYCPMCNIKIHETQPLL (PCGF1 RING domain (UniProt Q9BSM1)) | 0
SYEDKSNDFVCPICFDMIEEAYMTKCGHSFCYKCIHQSLEDNNRCPKCNYVVDNIDHLY (COP1 RING domain (UniProt Q8NHY2)) | 0
B1 (RNF175 RING domain) | 0
LKQVSIRENCCSLCCDEVADTQLKPCGHSDLCMDCALQLETCPLCRKEIVSRIRQI (RSPRY1 RING domain (UniProt Q96DX4)) | 0
B2 (RFPL2 RING domain) | 0
B3 (TRIM38 RING domain) | 0
B4 (NSMCE1 RING domain) | 0
B5 (RNF150 RING domain) | 2880
B6 (PHF7 RING domain) | 0
B7 (TRIM35 RING domain) | 0
B8 (ANKIB1 RING domain) | 0
QLQDEEDDSLCRICMDAVIDCVLLECGHMVTCTKCGKRMSECPICRQYVVRAVHVF (RNF34 RING domain (UniProt Q969K3)) | 0
B9 (UBE4A RING domain) | 0
KRQCSDVDDICSICQAEFQKPILLICQHIFCEECMTLWFNREKTCPLCRTVISDHINKW (RNFT1 RING domain (UniProt Q5M7Z0)) | 0

Block 2 — method: RNA Bind-n-Seq; form: RNA; medium: in vitro; tested at: 365 nM; reference: no-protein control; direction: higher = stronger binding
Target: RNA binding protein fox-1 homolog 2, RRM domain, GST-SBP tag (RBFOX2, Homo sapiens, UniProt O43251-10, residues 100-194)
Notes: natural RNA segment, single round, ends assumed
Constant ends, left off below: GGGAGUUCUACAGUCCGACGAUC … UGGAAUUCUCGGGUGCCAA
Residues (chain): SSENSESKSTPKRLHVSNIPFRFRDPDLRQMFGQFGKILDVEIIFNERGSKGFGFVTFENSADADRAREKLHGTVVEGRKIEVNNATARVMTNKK
Strand | RBNS enrichment (R)
UAACUGGUAAGGCUUAUUGUACAGUAUAUUGUCAGUAUUCUUCUGGUUCAGCAUACCUUAUAGUUCGUAUAUAACCUGUAUUAAUUGUAUAGAUUGUGCAUUUAAAGCUG | 0.419
CCCAGGAAUGCCGUGAAAGGAGACAAGGUCUGCCCGACCCAUGUCUAUGCUCUACCCCCAGGGUAGCAUCUCAGCUUCCGAACCCUGGGCUGUUUCCUUAGUCUUCAUUU | 1.4
AAAAAAACACUUCAACUCCCUCCCCCAUUUAGAUUAUUUAUUAACAUAUUUUAAAAAUCAGAUGAGUUCUAUAAAUAAUUUAGAGAAGUGAGAGUAUUUAUUUUUGGCAU | 0.569
GAACUGUAUUUUUGCCUUUAAAAUUAAAUAAUAUAACGUGAAUAAAUGACCCUAUCUUUGUAACUGCGGUGGUUUCUGUUUGCCAGGUGUAAGGGUUGUCAUGGCUGUGG | 1.07
AGCUGGGCAUGGGGCUGACGGAGAUGACCAAGCCUUGGUCUGCUCUCUAGCAGCUUCCACAGACUUGGCUCGUGGCCUUCCUUAUAUCCACUGGGAACAAACAGCCUCGC | 0.183
CUGGUCUUUUGUGAAUGGAUGGUUUUGUUUCCUAUGGGAAUUUUGGCAAAGGUUUUCUGGAAAGAACAAGUUUCUCAAAGGACUUUCUUCCUCUAGAAUGUUCAUUUUAU | 0.488
UUGAGUCAGUCCUCUUAGGCUGCACCUCCAGCCUCUGCAGAUCCCCCCUCAUUUCCCAUGGAUGGUGGGACCCCAUUAUUCUCUCAUCUCGGCAUUCAGGGAACAGUUUC | 0.327
UUCCAUCUAAAAAACCCUCGACCCGAAACCCUCACCAGAUAAACUACAGUUUGUUUAGGAGGCCCUGACCUUCAUGGUGUCUUUGAAGCCCAACCACUCGGUUUCCUUCG | 0.351
CAAAAUGAAACCUUGACAUUCUGGGAAGGAUUCCUAGCAGCUGAAUCCUAUUGACAAUGUGAGCUCCUCUGAGUGUCUGUGAAAUACUUCCAGUGUUCCUCAUCAUGUUU | 0.674

Block 3 — target: CCND2, cyclin fold, Cln2 fusion (human); method: yeast growth competition, sequencing; medium: yeast; notes: weak parent motif; reference: not given; direction: higher = stronger binding
Parent: CDKN1A docking peptide (human); SKACRRLFGPVDS
Substitution | normalised enrichment score
SKACRRLFGCVDS [P10C] | 0.0345
SKACRRLAGPVDS [F8A] | -0.112
SKACLRLFGPVDS [R5L] | -0.103
SKACERLFGPVDS [R5E] | 0.0236
SKACRRLFGPFDS [V11F] | 0.148
SKACRRAFGPVDS [L7A] | -0.045
SKACHRLFGPVDS [R5H] | 0.0325
SKACRRLFGTVDS [P10T] | 0.332
SKACRREFGPVDS [L7E] | 0.227
SKACRNLFGPVDS [R6N] | 0.408
SIACRRLFGPVDS [K2I] | 0.221
SKFCRRLFGPVDS [A3F] | -0.428
SKACRRLPGPVDS [F8P] | 0.0627
SKACRRLFPPVDS [G9P] | 0.86
SKMCRRLFGPVDS [A3M] | -0.12
SKWCRRLFGPVDS [A3W] | -0.282

Block 4 — method: RNA Bind-n-Seq; form: RNA; medium: in vitro; tested at: not given; notes: RNA with constant flanks, ends assumed; reference: input RNA pool; direction: higher = stronger binding
Target: RING finger protein unkempt homolog, zinc fingers 1-6, GST-SBP tag (UNK, Homo sapiens, UniProt Q9C0B0, residues 30-357)
Constant ends, left off below: GGGAGUUCUACAGUCCGACGAUC … CAACAGAGGAUUGAGCAUCA
Construct (chain): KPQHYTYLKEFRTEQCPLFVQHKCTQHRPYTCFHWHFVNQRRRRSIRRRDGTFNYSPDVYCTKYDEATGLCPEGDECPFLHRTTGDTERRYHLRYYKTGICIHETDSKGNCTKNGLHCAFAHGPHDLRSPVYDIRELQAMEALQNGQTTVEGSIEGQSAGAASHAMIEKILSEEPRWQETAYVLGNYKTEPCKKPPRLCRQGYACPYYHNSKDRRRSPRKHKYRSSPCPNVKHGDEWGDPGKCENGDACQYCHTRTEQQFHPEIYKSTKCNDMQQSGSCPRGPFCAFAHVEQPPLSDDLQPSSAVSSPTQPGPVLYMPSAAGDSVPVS
Strand | bound/input enrichment
AGUGAAGAAAAUGCUGAGCCGGAUCUCGAUGACAAUGAGGAGGAGGAGGAGCCUGCUGCCGAAAUUGAACCUGAGCCAGAGCCUCAGCCCCAGCCUCCGCCUCCACCUCAGCCUGUGGCC | 0.109 ratio
ACCACUGAGAGCAGUCAAUCCUUUGUUGCAGUACAUCACAGUGAGGAAGGCAGGGAUACCUCCGGAAGCAGUACAAAUCUUCAUAAUCACUCUGAGGGAGAGUAUAUUCCAGGAGCUUGU | 0.646 ratio
GCACAGAUUCAUCAAUUCAGAGAGGAUUCAUUGGAUAGCGUUCUUUUUUUAAAGAAGAUUGACCGAUGCUGGCAAAACCAUUGCAGACAAAUGAUCAUGAUCAGGAGCAUUUUUUUGUUU | 0.24 ratio
AUCAAACAUUACUUCAGUAUAGUUCCAGGAAAUGUGAGUUCUUCUCCCAGAUCUUCUGAUUCCGUCAAAUUAGCCCAAGAGUGCUGUUACCAUAAUAACAGGGGCAUUGCAGCUCAUGGA | 0.302 ratio
GAGCAGAGAGUGGUGAGGCCAGCCACUGCCUGUGCGUGCAGUGCAGUGUUGGUAAGAGAAGCCUACCCCGGAGCUGGUGAUGAUGAAGGCUGGGCUGGGAAAGCAUUCUCUGUCCUGCUC | 0.0829 ratio
UUUCUAGUUUGAGCUUUCUUUUUGGCCGUCUUUAAAAAAAUUUUUUUUUUUAAUCUAUAAAACCGACAAGAGCUAGUUCUACAAUGUCCAAGUCAUUCCAGCAGUCAUCUCUCAGUAGGG | 0.595 ratio
UCAUACAGUGUCAGAACAAAGGCUGGGAUGGGUAUGAUGUACAGUGGGAAUGUAAGACGGACUCCGAUAUUGCAUACAAAUUUGGAAAAACUGUGGUGAGCUGUGAAGGCUAUGAGUCCU | 0.276 ratio
AGUCAUCUAGAAAGAAUCUGGGCAACUGGUAACCAUGAGCGAAUGGAUGAAGAAAAGCCCCUCCGAAUGGGAAGAUUACGUUUAUAAAGAAGUGAGAGUGAUAGCCUGUGAGAAGGAGUA | 0.377 ratio
AGAGAACCAGCCCUGGAUGGCGGGUUUCAGAUGCAUUAUGAGAAGACCCCGUUUGAUCAGUCCGCUUUUAUCGAAGAGCUUUUUUCACUGAUGGUUGUCAAUCGUCUGACCGAAGAACUC | 0.365 ratio
AAUCUCUGGGAACACUAUUAUAAAGAUGGACAAGCCAUUAUUUUUGUCAUUGAUAGCCGUGAUAAGUUAAGAAUGGUUGUGGCCAAAGAAGAGCUUGAUACCCUUCUGAAUCACCCAGAU | 0.13 ratio
AGAAAUUUUUGUAUUUUUCUUUUACAGAUUUUAACUACGAUGAUUUUUUUCUAAAUUAAGCCGGUCAGGUUGUCAAAGUCAGUGCAAUAGUAAUACAACUUCCUUUUUAAGAAAACCCAA | 0.364 ratio

For quick reference, copied from above (block 3):
Substitution | normalised enrichment score
SKACRRLFGCVDS [P10C] | 0.0345
SKACRRLFPPVDS [G9P] | 0.86
SKACRNLFGPVDS [R6N] | 0.408
SKACRRAFGPVDS [L7A] | -0.045
SKACRRLFGPFDS [V11F] | 0.148
SKACRREFGPVDS [L7E] | 0.227
